# Measurements of several laboratories.
# A part holds a random share of what one study measured. Several values in a cell are separate wells, animals, samples, runs or records.
# UniProt Q9H2X6, sequence (whole entry, looked up): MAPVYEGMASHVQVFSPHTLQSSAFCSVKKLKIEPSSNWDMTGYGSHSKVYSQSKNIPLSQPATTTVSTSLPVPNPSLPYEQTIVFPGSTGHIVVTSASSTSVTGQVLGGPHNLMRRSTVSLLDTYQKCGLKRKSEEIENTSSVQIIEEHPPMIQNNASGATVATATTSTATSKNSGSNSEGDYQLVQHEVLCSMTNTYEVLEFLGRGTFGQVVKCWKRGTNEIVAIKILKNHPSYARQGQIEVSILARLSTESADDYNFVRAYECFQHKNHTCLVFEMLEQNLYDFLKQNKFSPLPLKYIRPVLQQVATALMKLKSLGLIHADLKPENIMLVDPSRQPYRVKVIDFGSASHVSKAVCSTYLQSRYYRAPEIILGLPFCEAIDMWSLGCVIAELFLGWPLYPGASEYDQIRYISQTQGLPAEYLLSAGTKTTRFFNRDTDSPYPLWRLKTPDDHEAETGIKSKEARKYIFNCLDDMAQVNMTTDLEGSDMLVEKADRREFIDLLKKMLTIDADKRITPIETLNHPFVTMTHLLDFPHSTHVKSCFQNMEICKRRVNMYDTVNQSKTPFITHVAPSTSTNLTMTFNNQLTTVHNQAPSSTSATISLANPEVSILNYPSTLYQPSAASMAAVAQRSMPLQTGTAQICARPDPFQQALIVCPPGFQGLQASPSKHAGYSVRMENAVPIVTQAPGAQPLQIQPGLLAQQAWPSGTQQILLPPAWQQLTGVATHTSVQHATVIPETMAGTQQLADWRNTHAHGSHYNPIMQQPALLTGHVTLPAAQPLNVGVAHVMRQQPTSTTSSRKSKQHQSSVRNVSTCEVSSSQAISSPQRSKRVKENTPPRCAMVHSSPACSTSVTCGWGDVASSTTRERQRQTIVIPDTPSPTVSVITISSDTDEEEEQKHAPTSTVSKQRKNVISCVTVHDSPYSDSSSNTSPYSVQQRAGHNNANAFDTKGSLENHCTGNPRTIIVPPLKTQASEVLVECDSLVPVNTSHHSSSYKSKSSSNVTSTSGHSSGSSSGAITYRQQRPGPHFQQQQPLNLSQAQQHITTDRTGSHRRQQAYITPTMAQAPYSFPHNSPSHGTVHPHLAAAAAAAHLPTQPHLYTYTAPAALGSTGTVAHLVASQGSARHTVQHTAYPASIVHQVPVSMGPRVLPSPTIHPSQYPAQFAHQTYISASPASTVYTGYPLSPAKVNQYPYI
# UniProt P51812, sequence (whole entry, looked up): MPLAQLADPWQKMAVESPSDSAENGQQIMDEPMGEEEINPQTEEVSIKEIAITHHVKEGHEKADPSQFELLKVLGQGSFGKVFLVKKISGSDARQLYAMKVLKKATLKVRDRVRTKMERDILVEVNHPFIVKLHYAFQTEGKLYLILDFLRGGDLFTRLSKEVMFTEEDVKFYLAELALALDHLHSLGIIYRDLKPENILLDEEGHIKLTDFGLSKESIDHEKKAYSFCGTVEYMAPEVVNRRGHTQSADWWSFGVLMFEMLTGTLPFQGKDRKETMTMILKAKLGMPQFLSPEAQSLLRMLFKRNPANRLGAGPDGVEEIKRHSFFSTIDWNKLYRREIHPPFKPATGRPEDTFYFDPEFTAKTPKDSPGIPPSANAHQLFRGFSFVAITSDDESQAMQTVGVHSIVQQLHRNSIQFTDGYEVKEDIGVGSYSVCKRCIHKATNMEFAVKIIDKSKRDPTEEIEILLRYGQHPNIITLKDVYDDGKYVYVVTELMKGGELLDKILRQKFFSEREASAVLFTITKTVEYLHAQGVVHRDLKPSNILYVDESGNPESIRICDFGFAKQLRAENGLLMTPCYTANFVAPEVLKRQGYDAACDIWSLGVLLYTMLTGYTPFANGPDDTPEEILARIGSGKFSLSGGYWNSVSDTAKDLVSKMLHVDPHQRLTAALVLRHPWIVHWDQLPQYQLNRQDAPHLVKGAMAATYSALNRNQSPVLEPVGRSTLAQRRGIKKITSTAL
# UniProt P27361, sequence (whole entry, looked up): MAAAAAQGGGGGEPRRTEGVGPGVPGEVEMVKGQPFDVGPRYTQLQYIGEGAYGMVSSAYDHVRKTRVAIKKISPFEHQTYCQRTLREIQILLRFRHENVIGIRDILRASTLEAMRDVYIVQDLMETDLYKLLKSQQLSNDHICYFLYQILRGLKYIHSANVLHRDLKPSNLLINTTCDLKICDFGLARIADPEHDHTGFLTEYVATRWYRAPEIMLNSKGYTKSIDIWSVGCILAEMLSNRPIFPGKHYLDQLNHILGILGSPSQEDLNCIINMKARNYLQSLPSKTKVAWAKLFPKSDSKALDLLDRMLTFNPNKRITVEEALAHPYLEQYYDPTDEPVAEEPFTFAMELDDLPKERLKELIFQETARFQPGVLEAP
# UniProt Q8N752, sequence (whole entry, looked up): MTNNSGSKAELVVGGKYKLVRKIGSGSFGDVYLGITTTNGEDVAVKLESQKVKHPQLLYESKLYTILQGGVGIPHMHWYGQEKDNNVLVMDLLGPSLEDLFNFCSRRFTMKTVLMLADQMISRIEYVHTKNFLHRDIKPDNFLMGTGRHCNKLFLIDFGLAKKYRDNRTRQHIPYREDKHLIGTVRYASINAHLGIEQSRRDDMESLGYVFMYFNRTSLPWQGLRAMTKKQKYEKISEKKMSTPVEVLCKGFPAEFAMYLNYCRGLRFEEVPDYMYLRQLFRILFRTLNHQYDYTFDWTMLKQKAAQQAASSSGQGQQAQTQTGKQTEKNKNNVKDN

# Study 1
# SMILES: C[C@@H]1CN(c2ccc(-c3cc(C(=O)NCCOCCOCCOCCOCCNC(=O)/C=C/c4[nH]cc(C(=O)N[C@@H](CC(N)=O)c5ccc(F)c(Cl)c5)c4-c4ccc(Cl)cc4F)ccc3F)cc2NC(=O)c2c[nH]c(=O)cc2C(F)(F)F)C[C@H](C)N1C
# Effect on: thermal unfolding
# Technique: differential scanning fluorimetry
# Tested at: 5.5 µM
# Reading: higher = more unfolded
# WDR5: WD repeat-containing protein 5 (WDR5, Homo sapiens, UniProt P61964)
# DCAF1: DDB1- and CUL4-associated factor 1 (DCAF1, Homo sapiens, UniProt Q9Y4B6)
# UniProt Q9Y4B6, sequence (whole entry, looked up): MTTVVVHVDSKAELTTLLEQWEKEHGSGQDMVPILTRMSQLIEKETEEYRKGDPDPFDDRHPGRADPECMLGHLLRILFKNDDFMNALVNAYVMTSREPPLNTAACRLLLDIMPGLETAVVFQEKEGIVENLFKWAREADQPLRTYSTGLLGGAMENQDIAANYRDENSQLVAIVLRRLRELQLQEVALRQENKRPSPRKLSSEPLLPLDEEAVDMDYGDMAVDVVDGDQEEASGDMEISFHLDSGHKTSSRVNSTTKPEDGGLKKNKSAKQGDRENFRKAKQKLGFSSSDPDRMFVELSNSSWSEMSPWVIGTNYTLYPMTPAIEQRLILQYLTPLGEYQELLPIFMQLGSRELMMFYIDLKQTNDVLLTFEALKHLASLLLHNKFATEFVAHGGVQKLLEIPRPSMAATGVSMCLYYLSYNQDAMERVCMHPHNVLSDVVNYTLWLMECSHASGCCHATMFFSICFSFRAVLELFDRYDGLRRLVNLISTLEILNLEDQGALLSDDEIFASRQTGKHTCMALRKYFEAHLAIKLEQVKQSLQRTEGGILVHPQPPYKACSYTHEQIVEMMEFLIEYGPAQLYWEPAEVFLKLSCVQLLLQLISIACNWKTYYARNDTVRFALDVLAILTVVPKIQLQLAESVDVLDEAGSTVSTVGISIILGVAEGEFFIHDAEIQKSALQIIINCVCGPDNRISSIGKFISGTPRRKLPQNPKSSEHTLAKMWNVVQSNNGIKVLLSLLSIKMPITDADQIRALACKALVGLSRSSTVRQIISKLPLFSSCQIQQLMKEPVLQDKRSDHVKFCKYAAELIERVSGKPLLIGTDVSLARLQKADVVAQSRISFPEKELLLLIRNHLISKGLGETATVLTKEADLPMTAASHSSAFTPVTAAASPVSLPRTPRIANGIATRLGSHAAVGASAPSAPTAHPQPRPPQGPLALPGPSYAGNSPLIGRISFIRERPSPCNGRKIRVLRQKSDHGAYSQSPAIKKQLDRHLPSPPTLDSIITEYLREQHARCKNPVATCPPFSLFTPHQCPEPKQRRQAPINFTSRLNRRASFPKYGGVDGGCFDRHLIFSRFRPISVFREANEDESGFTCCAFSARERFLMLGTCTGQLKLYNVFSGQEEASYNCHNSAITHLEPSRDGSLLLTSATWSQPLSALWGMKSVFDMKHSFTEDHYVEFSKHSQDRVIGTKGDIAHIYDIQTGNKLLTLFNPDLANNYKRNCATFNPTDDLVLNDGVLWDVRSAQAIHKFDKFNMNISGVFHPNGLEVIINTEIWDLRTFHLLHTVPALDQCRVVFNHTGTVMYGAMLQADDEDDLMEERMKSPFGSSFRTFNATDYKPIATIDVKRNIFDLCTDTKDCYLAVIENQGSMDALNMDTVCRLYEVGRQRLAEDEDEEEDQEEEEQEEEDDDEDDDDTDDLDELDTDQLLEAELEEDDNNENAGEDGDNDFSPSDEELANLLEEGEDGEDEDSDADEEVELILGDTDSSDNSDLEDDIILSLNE
target,conditions,SYPRO Orange fluorescence
WDR5,53.41 °C,16800 a.u.
WDR5,62.21 °C,14800 a.u.
DCAF1,85.41 °C,39700 a.u.
DCAF1,77.01 °C,48000 a.u.
DCAF1,58.41 °C,33100 a.u.
DCAF1,57.21 °C,28000 a.u.
WDR5,27.6 °C,12900 a.u.
DCAF1,41.2 °C,11900 a.u.

# Study 2
# Target: Myeloperoxidase (MPO, Homo sapiens, UniProt P05164)
# UniProt P05164, sequence (whole entry, looked up): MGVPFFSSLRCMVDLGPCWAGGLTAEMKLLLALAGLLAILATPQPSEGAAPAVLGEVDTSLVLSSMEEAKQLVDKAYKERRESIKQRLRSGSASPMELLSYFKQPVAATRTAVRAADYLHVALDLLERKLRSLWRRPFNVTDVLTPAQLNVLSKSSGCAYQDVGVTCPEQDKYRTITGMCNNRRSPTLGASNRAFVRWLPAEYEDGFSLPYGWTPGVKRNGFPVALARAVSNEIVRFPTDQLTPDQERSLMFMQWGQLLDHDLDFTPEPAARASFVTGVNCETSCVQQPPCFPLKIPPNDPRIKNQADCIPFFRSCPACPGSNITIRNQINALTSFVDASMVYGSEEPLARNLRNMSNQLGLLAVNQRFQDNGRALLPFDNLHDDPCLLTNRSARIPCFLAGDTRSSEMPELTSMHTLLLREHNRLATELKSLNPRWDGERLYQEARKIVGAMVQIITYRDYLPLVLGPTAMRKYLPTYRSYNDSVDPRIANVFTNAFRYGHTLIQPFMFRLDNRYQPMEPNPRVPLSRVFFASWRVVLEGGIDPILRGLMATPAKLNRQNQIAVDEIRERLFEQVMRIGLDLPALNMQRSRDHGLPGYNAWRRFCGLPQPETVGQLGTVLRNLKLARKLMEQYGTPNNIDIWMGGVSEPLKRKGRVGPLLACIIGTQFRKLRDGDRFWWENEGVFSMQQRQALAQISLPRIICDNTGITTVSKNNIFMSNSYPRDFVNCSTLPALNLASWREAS
# Effect on: enzyme activity
# Mode: inhibitor
# Technique: fluorescence
# Tested at: 4.6 nM
Compound,inhibition
Cc1nc2c([nH]1)c(=O)[nH]c(=S)n2Cc1cccc(OC/C(=C/F)CN)c1,-7.9%
CC(C)(C)NC(=O)c1ccc(OC/C(=C/F)CN)cc1,-16.4% and -9.45% and -10.4%
NC/C(=C\F)COc1ccc(Cn2c(=S)[nH]c(=O)c3[nH]cnc32)cc1,-5.47%

# Study 3
# SMILES: CCC1(c2cccc(-c3cn(C)nc3C)c2)C2=C(Nc3n[nH]cc31)C(F)C(C)(C)CC2=O (single isomer, unassigned)
# Tested at: 1 µM
target,assay,how to read,remaining binding [%]
"CSNK1A1L (Homo sapiens, UniProt Q8N752)","kinase binding, KINOMEscan",relative to: DMSO control,100
"Tyrosine-protein kinase ABL1, non-phosphorylated (ABL1, Homo sapiens, UniProt P00519, F317I)","binding, competition with immobilised ligand",,100
"CHEK1 (Homo sapiens, UniProt O14757)","binding, competition with immobilised ligand",,83
"ACVR2B (Homo sapiens, UniProt Q13705)","binding, competition with immobilised ligand",,100
"PRKAA1 (Homo sapiens, UniProt Q13131)","binding, competition with immobilised ligand",,96
"TXK (Homo sapiens, UniProt P42681)","kinase binding, KINOMEscan",relative to: DMSO control,100
"HIPK2 (Homo sapiens, UniProt Q9H2X6)","kinase binding, KINOMEscan",relative to: DMSO control,75
"MAPK1 (Homo sapiens, UniProt P28482)","binding, competition with immobilised ligand",,91
"RIOK2 (Homo sapiens, UniProt Q9BVS4)","binding, competition with immobilised ligand",,84
"TNK1 (Homo sapiens, UniProt Q13470)","kinase binding, KINOMEscan",relative to: DMSO control,100
"MAST1 (Homo sapiens, UniProt Q9Y2H9)","kinase binding, KINOMEscan",relative to: DMSO control,100
"STK17B (Homo sapiens, UniProt O94768)","binding, competition with immobilised ligand",,100
"HIPK4 (Homo sapiens, UniProt Q8NE63)","binding, competition with immobilised ligand",,100
"EPHA8 (Homo sapiens, UniProt P29322)","kinase binding, KINOMEscan",relative to: DMSO control,100

# Study 4
# Structure (SMILES): COc1cc(-c2nc3ccc(C(=O)NCCCN4CCN(c5cccc(C)c5C)CC4)cc3n2C2CCC2)cc(OC)c1OC
# Effect on: binding
# Technique: competition with immobilised ligand
# Tested at: 1 µM
target,remaining binding
"STK11 (Homo sapiens, UniProt Q15831)",89%
"PIK3CA (Homo sapiens, UniProt P42336, Q546K)",97%
"MAPK3 (Homo sapiens, UniProt P27361)",81%
"CSNK1A1 (Homo sapiens, UniProt P48729)",94%
"SRMS (Homo sapiens, UniProt Q9H3Y6)",69%
"MAP4K1 (Homo sapiens, UniProt Q92918)",92%
"CAMK1 (Homo sapiens, UniProt Q14012)",100%
"NEK7 (Homo sapiens, UniProt Q8TDX7)",97%
"Ribosomal protein S6 kinase alpha-3, C-terminal kinase domain (RPS6KA3, Homo sapiens, UniProt P51812)",77%
"SGK2 (Homo sapiens, UniProt Q9HBY8)",92%
"PRKCD (Homo sapiens, UniProt Q05655)",100%
"FLT3 (Homo sapiens, UniProt P36888)",98%
"SGK3 (Homo sapiens, UniProt Q96BR1)",89%
"EPHA6 (Homo sapiens, UniProt Q9UF33)",92%
"SRPK2 (Homo sapiens, UniProt P78362)",80%
"KIT (Homo sapiens, UniProt P10721)",100%
"PIKFYVE (Homo sapiens, UniProt Q9Y2I7)",92%

# Further values, each from its own experiment
Compound,test system,conditions,quantity,value
COc1cc(C(=O)OCCCN2CCCN(CCCOC(=O)c3cc(OC)c(OC)c(OCc4ccc([N+](=O)[O-])cc4)c3)CC2)cc(OC)c1OC,"naive mice, mixed sexes","intrathecal, 100 nmol, 60 min",rotarod fall latency,80 s and 102 s and 70 s and 90 s and 72 s and 97 s
